Published values from different studies.
Compare with care: the assays were run in different laboratories. Numbers after ± are the reported error.
UniProt P08183, sequence (whole entry, looked up): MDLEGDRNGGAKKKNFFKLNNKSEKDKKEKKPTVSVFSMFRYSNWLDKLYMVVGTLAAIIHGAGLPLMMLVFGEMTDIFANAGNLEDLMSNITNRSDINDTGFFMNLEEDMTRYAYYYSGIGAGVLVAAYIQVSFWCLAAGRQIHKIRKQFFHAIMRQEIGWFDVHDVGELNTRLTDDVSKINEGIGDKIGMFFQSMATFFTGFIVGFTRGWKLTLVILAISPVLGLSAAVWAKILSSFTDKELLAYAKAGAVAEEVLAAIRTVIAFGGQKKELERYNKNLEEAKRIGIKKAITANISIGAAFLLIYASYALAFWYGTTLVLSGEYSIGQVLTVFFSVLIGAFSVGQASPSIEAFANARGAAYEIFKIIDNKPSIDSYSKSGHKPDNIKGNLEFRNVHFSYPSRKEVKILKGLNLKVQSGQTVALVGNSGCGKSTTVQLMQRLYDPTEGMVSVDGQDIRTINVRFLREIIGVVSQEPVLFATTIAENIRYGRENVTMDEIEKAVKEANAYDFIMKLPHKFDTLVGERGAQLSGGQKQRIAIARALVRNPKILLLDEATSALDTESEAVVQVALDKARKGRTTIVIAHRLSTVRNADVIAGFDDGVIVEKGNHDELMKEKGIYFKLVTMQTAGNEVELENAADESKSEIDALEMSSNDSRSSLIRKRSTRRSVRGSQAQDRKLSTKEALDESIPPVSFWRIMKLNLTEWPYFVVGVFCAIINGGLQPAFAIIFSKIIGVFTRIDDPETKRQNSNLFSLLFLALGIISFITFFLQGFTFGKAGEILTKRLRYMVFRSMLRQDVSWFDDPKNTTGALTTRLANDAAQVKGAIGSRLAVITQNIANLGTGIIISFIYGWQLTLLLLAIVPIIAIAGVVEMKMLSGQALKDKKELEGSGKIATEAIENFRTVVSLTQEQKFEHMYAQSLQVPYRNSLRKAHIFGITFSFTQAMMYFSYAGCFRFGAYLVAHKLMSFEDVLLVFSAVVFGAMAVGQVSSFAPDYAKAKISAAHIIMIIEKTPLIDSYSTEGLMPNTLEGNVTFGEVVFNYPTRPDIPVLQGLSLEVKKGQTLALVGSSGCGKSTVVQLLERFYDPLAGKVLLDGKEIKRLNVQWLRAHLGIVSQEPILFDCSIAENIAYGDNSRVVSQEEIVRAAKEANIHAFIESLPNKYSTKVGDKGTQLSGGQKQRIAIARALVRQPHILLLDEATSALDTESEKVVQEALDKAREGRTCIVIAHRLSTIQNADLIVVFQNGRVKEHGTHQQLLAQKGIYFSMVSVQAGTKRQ
UniProt P21266, sequence (whole entry, looked up): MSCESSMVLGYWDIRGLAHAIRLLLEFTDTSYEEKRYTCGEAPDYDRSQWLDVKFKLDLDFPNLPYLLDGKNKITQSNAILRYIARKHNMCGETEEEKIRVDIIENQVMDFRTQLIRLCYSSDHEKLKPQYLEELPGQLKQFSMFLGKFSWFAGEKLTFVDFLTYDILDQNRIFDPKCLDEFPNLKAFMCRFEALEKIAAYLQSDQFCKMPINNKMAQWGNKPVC

| Structure (SMILES) | target or system | test | test system | setting | how to read | endpoint | result |
| --- | --- | --- | --- | --- | --- | --- | --- |
| CCCCCCCCCCC(=O)O[C@H]1CC[C@H]2[C@@H]3CCC4=CC(=O)CC[C@]4(C)[C@H]3CC[C@]12C |  |  | human male serum | 500 ng/mL, NaF 50.0 mg/mL, baseline testosterone 441 ng/dL |  | testosterone level | 445 ng/dL |
| Cc1cc(C(=O)NC(C)(C)COc2cccc3c2C(N)=NS(=O)(=O)N3)cc(C)n1 | Salmonella typhimurium | Ames test, initial | TA1537 | 5.00 µg/plate, added: rat liver S9 | reference: solvent control | revertant ratio | 0.8 |
| COc1cc2c(Oc3ccc4[nH]c(C)cc4c3F)ccnc2cc1OCC1(N)CC1 |  |  | paediatric recurrent refractory sarcoma | 10 mg |  | grade 3 Hypothyroidism | 0% |
| CC[C@H](C)[C@H](NC(=O)[C@H](CCCNC(=N)N)NC(=O)[C@H](CCCNC(=N)N)NC(=O)[C@H](CCCNC(=N)N)NC(=O)[C@H](CCCNC(=N)N)NC(=O)[C@H](CCCNC(=N)N)NC(=O)[C@@H](N)CCCNC(=N)N)C(=O)N[C@@H](CO)C(=O)N[C@@H](Cc1ccccc1)C(=O)N[C@@H](CC(C)C)C(=O)NCC(=O)N[C@@H](CO)C(=O)N[C@@H](CCCCN)C(=O)N[C@H](C(=O)N[C@H](C(=O)N[C@H](C(=O)N[C@@H](CC(C)C)C(=O)N[C@@H](CC(C)C)C(=O)N[C@@H](CCCCN)C(=O)N[C@@H](CCCNC(=N)N)C(=O)N[C@@H](CCCNC(=N)N)C(=O)N[C@@H](CCCNC(=N)N)C(=O)N[C@@H](CCCNC(=N)N)C(=O)N[C@@H](CCCNC(=N)N)C(N)=O)C(C)C)C(C)C)C(C)C | human erythrocytes |  |  | 400 µM, 1 h | reference: Triton X-100 | hemolysis | 20% |
| COc1cccc(-c2n[nH]c(SCc3ccccn3)n2)c1OC | Salmonella typhimurium | Ames test, plate incorporation | TA100 | 0.13 mg/plate, with rat liver S9 |  | revertant colonies per plate | 107 |
| CO[C@H]1C[C@@H]2CC[C@@H](C)[C@@](O)(O2)C(=O)C(=O)N2CCCC[C@H]2C(=O)O[C@H]([C@H](C)C[C@@H]2CC[C@@H](OC(=O)NCCOCCOCCOCCOCCOCCOCCOCCOCCC(=O)N3CCc4cc(Cn5nc(-c6ccc7oc(N)nc7c6)c6c(N)ncnc65)ccc4C3)[C@H](OC)C2)C[C@@H](O)[C@H](C)/C=C(\C)[C@@H](O)[C@@H](OC)C(=O)[C@H](C)C[C@H](C)/C=C/C=C/C=C/1C |  | phase 1 dose escalation, refers to: diarrhoea | advanced solid tumour patients | intravenous, 12 mg weekly, any grade |  | TRAE incidence | 16.7% |
| CCN(CC)C(=O)[C@@H]1C=C2c3cccc4[nH]cc(c34)C[C@H]2N(C)C1 |  | refers to: fear of death | healthy volunteers | dose not given, 0 to 12 h | reference: placebo, direction not given | List of Complaints score | 0 |
| OC(CCN1CC=C(c2ccc(F)cc2)CC1)c1ccc(F)c2ccccc12 (stereo not shown) | Salmonella typhimurium | SOS response, SOS/umu test | TA1535/pSK1002, TGA medium | 0.000488 mg/mL, 4 h, without S9 | reference: untreated | induction factor | 0.8 |
| C=C1C[C@@H]2[C@H](CC[C@]3(C)C(=O)CC[C@@H]23)[C@@]2(C)C=CC(=O)C=C12 | Glutathione S-transferase Mu 3 (Homo sapiens, UniProt P21266) | glutathione conjugate formation, substrate | recombinant enzyme 2.5 ng/µL | 250 µM, 1 h, 37 °C, active if over 3-fold mock control, added: GSH 5 mM |  | activity class | active |
| O=c1ccc2ccccc2o1 | NHEK | mitochondrial reserve capacity, Seahorse |  | concentration not given, 24 h |  | chance response | 55.3% |
| CC[C@H](C)[C@H](NC(=O)[C@H](CCCNC(=N)N)NC(=O)[C@H](CCCNC(=N)N)NC(=O)[C@@H](N)CCCNC(=N)N)C(=O)N[C@@H](CO)C(=O)N[C@@H](Cc1ccccc1)C(=O)N[C@@H](CC(C)C)C(=O)NCC(=O)N[C@@H](CO)C(=O)N[C@@H](CCCCN)C(=O)N[C@H](C(=O)N[C@H](C(=O)N[C@H](C(=O)N[C@@H](CCCNC(=N)N)C(=O)N[C@@H](CCCNC(=N)N)C(=O)N[C@@H](CCCCN)C(=O)N[C@@H](CCCNC(=N)N)C(N)=O)C(C)C)C(C)C)C(C)C | human erythrocytes |  |  | 400 µM, 1 h | reference: Triton X-100 | hemolysis | 9% |
| O=S(=O)(Nc1ccccc1)c1ccc(NC(=S)Nc2ccccc2)cc1 |  | refers to: TRIG | female mouse, blood | oral, 20 mg/kg daily, 14 days |  | blood chemistry level | 205 mg/dL |
| CC(C)CC(=O)OC[C@H]1O[C@@](C#N)(c2ccc3c(N)ncnn23)[C@H](O)[C@@H]1O | ABCB1 (Homo sapiens, UniProt P08183) |  | Caco-2 | 0.9 µM, 2 h, added: zosuquidar 25 µM |  | efflux ratio | > 1.23 |
| CC[C@H](C)[C@H](NC(=O)[C@H](CCCNC(=N)N)NC(=O)[C@H](CCCNC(=N)N)NC(=O)[C@H](CCCNC(=N)N)NC(=O)[C@H](CCCNC(=N)N)NC(=O)[C@H](CC(C)C)NC(=O)[C@H](CCCNC(=N)N)NC(=O)[C@H](CO)NC(=O)[C@@H](N)CO)C(=O)N[C@H](C(=O)N[C@@H](CC(C)C)C(=O)N[C@@H](CCCNC(=N)N)C(=O)N[C@@H](CCCNC(=N)N)C(=O)N[C@@H](CCCNC(=N)N)C(=O)N[C@@H](CCCNC(=N)N)C(=O)N[C@@H](Cc1ccccc1)C(=O)N[C@@H](CO)C(=O)N[C@@H](C)C(=O)N[C@@H](Cc1ccc(O)cc1)C(N)=O)C(C)C | human erythrocytes |  |  | 400 µM, 1 h | reference: Triton X-100 | hemolysis | 7% |
| [Cl-].[Cl-].[Pt+2].[Ru+2].c1ccc(-c2nc3ccccc3nc2-c2ccccn2)nc1.c1cnc2c(c1)ccc1cccnc12.c1cnc2c(c1)ccc1cccnc12 | Danio rerio |  | embryos | 30 µM, 72 h |  | survival rate | 83.3 ± 3.1% |
| CC[C@@H](C)[C@@H](NC(=O)[C@@H](CC(C)C)NC(=O)[C@H](NC(=O)[C@H](NC(=O)[C@H](NC(=O)[C@@H](CCCNC(=N)N)NC(=O)[C@@H](CCCNC(=N)N)NC(=O)[C@@H](CCCNC(=N)N)NC(=O)[C@H](N)CCCNC(=N)N)C(C)C)[C@H](C)CC)[C@H](C)CC)C(=O)N[C@@H](C(=O)N[C@H](CC(C)C)C(=O)N[C@H](CCCNC(=N)N)C(=O)N[C@H](CCCNC(=N)N)C(=O)N[C@H](CCCNC(=N)N)C(=O)N[C@H](CCCNC(=N)N)C(=O)N[C@H](Cc1ccccc1)C(=O)N[C@H](CO)C(=O)N[C@H](C)C(=O)N[C@H](Cc1ccc(O)cc1)C(N)=O)C(C)C | human erythrocytes |  |  | 400 µM, 1 h | reference: Triton X-100 | hemolysis | 47% |
| OCc1ncc2n1-c1ccc(Cl)cc1C(c1ccccc1F)=NC2 |  |  | human, plasma | oral, 7.5 mg of midazolam, day 1, arithmetic mean, no amenamevir |  | AUC(0-inf) | 46.6 ng·h/mL |
| CN1CC[C@@H](c2c(O)cc(O)c3c(=O)cc(-c4ccc(C(F)(F)F)cc4Cl)oc23)[C@@H]1CO |  | refers to: Vomiting | B-cell malignancies or AML | oral, 50 mg, continuous dosing |  | patients with adverse event | 12.5% |
| CC[C@H](C)[C@H](NC(=O)[C@H](C)N)C(=O)N[C@@H](CO)C(=O)NCC(=O)N[C@@H](CO)C(=O)N[C@@H](CC(C)C)C(=O)N[C@H](C(=O)N[C@H](C(=O)N[C@@H](CC(C)C)C(=O)N[C@@H](Cc1ccccc1)C(=O)NCC(=O)N[C@@H](Cc1ccc(O)cc1)C(=O)N[C@@H](CCCNC(=N)N)C(=O)N[C@@H](CCCCN)C(=O)N[C@@H](CCCNC(=N)N)C(=O)N[C@@H](CCCCN)C(=O)N[C@@H](CCCNC(=N)N)C(=O)N[C@@H](CCCCN)C(N)=O)[C@@H](C)O)C(C)C | human erythrocytes |  |  | 400 µM, 1 h | reference: Triton X-100 | hemolysis | 16% |

Excerpt of the above:
| Structure (SMILES) | target or system | test | test system | setting | how to read | endpoint | result |
| --- | --- | --- | --- | --- | --- | --- | --- |
| O=c1ccc2ccccc2o1 | NHEK | mitochondrial reserve capacity, Seahorse |  | concentration not given, 24 h |  | chance response | 55.3% |
| CC[C@H](C)[C@H](NC(=O)[C@H](CCCNC(=N)N)NC(=O)[C@H](CCCNC(=N)N)NC(=O)[C@@H](N)CCCNC(=N)N)C(=O)N[C@@H](CO)C(=O)N[C@@H](Cc1ccccc1)C(=O)N[C@@H](CC(C)C)C(=O)NCC(=O)N[C@@H](CO)C(=O)N[C@@H](CCCCN)C(=O)N[C@H](C(=O)N[C@H](C(=O)N[C@H](C(=O)N[C@@H](CCCNC(=N)N)C(=O)N[C@@H](CCCNC(=N)N)C(=O)N[C@@H](CCCCN)C(=O)N[C@@H](CCCNC(=N)N)C(N)=O)C(C)C)C(C)C)C(C)C | human erythrocytes |  |  | 400 µM, 1 h | reference: Triton X-100 | hemolysis | 9% |
